Earlier results, collected from citations in different studies.
Compare with care: the assays were run in different laboratories. ± gives the spread as reported.
UniProt Q8WTQ7, sequence (whole entry, looked up): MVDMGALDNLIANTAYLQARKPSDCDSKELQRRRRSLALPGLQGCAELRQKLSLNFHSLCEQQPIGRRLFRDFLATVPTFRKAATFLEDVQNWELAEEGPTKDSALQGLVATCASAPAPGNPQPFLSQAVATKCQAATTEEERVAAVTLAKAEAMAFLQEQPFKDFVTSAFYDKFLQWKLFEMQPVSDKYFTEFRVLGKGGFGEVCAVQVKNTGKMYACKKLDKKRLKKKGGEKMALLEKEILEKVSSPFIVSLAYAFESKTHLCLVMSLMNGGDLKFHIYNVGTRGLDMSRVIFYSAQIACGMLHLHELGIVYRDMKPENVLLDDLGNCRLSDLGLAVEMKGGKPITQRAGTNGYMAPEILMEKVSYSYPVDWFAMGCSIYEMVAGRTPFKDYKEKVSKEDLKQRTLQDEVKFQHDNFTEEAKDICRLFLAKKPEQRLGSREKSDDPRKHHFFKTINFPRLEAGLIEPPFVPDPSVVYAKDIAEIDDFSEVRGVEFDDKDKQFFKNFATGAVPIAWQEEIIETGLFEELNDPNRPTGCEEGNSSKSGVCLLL

O=C(Nc1cccc2cnccc12)NC1CCc2cc(F)ccc2C1Cc1ccc(C(F)(F)F)cc1 (centres unmarked)  IC50 (TRPV1; calcium flux, antagonist; HEK293; with: capsaicin): 10 nM
CNCc1cn(S(=O)(=O)c2cccc(F)c2)c(-c2ccc(F)cc2F)c1OC  IC50 (PEPT2; transport): 81800 nM
CC1(C)CC[C@]2(C(=O)O)CC[C@]3(C)C(=CC[C@@H]4[C@@]5(C)C[C@@H](O)[C@H](O)C(C)(C)[C@@H]5CC[C@]43C)[C@@H]2C1  IC50 (PTP1B): 3210 nM
COC1CC2CCC(C)C(O)(O2)C(=O)C(=O)N2CCCCC2C(=O)OC(C(C)CC2CCC(OCCO)C(OC)C2)CC(=O)C(C)/C=C(\C)C(O)C(OC)C(=O)C(C)CC(C)/C=C/C=C/C=C/1C (centres unmarked)  IC50 (mTOR; cell-free; with: FKBP12): 1.6 to 2.4 nM
COC(=O)c1cc(O)c(O)c(O)c1  IC50 (xanthine oxidase; inhibitor): 212000 ± 400 nM
Cc1onc(-c2ccccc2)c1-c1ccc(S(N)(=O)=O)cc1  IC50 (NR4A2 (Nurr1); inverse agonist, cellular): 13000 ± 3000 nM
O=S(=O)(NCCNCC=Cc1ccc(Br)cc1)c1cccc2cnccc12  IC50 (PKA catalytic subunit alpha; fluorescence-TLC; with: 100 µM ATP): 100 nM
C/C(=N\NC(=O)c1cccc(S(=O)(=O)N2CCN(C)CC2)c1)c1cc(Cl)ccc1O  IC50 (LSD1; reversible inhibitor): ~31 nM
CCCOc1ccnc2[nH]cc(-c3ccnc(N)n3)c12  IC50 (CDK2): 7 nM
O=C(NCc1ccc(C(F)(F)F)cc1)Nc1cccc2cnccc12  IC50 (TRPV1; calcium flux, antagonist; HEK293; with: capsaicin): 5 nM
NCCC(Oc1ccc(C(F)(F)F)cc1)c1ccccc1 (centres unmarked)  IC50 (sigma-2 receptor; literature value): 35000 nM
CNC(C)C1CCC(N)C(OC2C(N)CC(N)C(OC3OCC(C)(O)C(NC)C3O)C2O)O1 (centres unmarked)  MIC (Acinetobacter baumannii; clinical isolate RKI-No_596/16): > 8 µg/mL
COc1cc2c(Nc3ccc(Cl)c(Cl)c3F)ncnc2cc1OC[C@@H]1C[C@@H]2CN(C)C[C@@H]2C1  IC50 (HER2): 16.1 nM
COC(=O)c1c[nH]c2ccccc12  IC50 (NR4A2 (Nurr1); inverse agonist, cellular): 48000 nM
CO[C@@H]1COCC[C@@H]1N[C@@H]1C[C@H]2CCC[C@@]2(C(=O)N2C[C@@H]3C[C@H]2CN3c2cc(C#N)cc(C(F)(F)F)c2)C1  IC50 (CCR2; 3D-QSAR training set): 812 nM
CCN(CC)CCCCNc1ncc2cc(-c3cc(OC)cc(OC)c3)c(NC(=O)NC(C)(C)C)nc2n1  IC50 (Tie2; inhibitor): > 1000 nM
CC(C)(C)c1ccc(NC(=O)c2ccc(-c3ncccc3N(S(C)(=O)=O)S(C)(=O)=O)cc2)cc1  IC50 (TRPV1; calcium flux, antagonist; HEK293; with: capsaicin): 0.8 nM
Nc1cc(C(F)(F)F)c(-c2nc(N3CCOCC3)nc(N3CCOCC3)n2)cn1  remaining activity (Rhodopsin kinase GRK7 (GRK7, Homo sapiens, UniProt Q8WTQ7); enzyme activity; 10 µM; baseline: untreated): 100%
COc1ccc2c(c1)CCC(NC(=O)Nc1cccc3cnccc13)C2Cc1ccc(C(F)(F)F)cc1 (centres unmarked)  IC50 (TRPV1; calcium flux, antagonist; HEK293; with: capsaicin): 2 nM
COc1cc(/C=C/C(=O)CC(=O)/C=C/c2ccc(O)c(OC)c2)ccc1O  IC50 (xanthine oxidase; inhibitor): 26000 ± 880 nM
O=C(NCCc1ccc(C(F)(F)F)cc1)Nc1cccc2cnccc12  IC50 (TRPV1; calcium flux, antagonist; HEK293; with: capsaicin): 19 nM
N=C(NCCCSC[C@H]1O[C@@H](n2cnc3c(N)ncnc32)[C@H](O)[C@@H]1O)Nc1ccccc1Br  IC50 (CARM1 (PRMT4); enzyme activity, inhibitor): 5.05 nM
O=C(NCc1ccc(C(F)(F)F)nc1N1CCCCC1)Nc1cccc2[nH]ncc12  IC50 (TRPV1; calcium flux, antagonist; HEK293; with: capsaicin): 3.5 nM
Fc1ccc([C@@H]2CCNC[C@H]2COc2ccc3c(c2)OCO3)cc1  IC50 (sigma-1 receptor; literature value): 1900 nM
CC1(C)S[C@@H]2[C@H](NC(=O)[C@H](N)c3ccccc3)C(=O)N2[C@H]1C(=O)O  MIC (Enterobacter cloacae; clinical isolate RKI-No_146/09): > 16 µg/mL
CC(C)(C)c1ccc(NC(=O)c2ccc(-c3ncccc3F)cc2)cc1  IC50 (TRPV1; calcium flux, antagonist; HEK293; with: capsaicin): 3 nM

Excerpt of the above:
O=S(=O)(NCCNCC=Cc1ccc(Br)cc1)c1cccc2cnccc12  IC50 (PKA catalytic subunit alpha; fluorescence-TLC; with: 100 µM ATP): 100 nM
CC1(C)CC[C@]2(C(=O)O)CC[C@]3(C)C(=CC[C@@H]4[C@@]5(C)C[C@@H](O)[C@H](O)C(C)(C)[C@@H]5CC[C@]43C)[C@@H]2C1  IC50 (PTP1B): 3210 nM
CNC(C)C1CCC(N)C(OC2C(N)CC(N)C(OC3OCC(C)(O)C(NC)C3O)C2O)O1 (centres unmarked)  MIC (Acinetobacter baumannii; clinical isolate RKI-No_596/16): > 8 µg/mL
COc1cc2c(Nc3ccc(Cl)c(Cl)c3F)ncnc2cc1OC[C@@H]1C[C@@H]2CN(C)C[C@@H]2C1  IC50 (HER2): 16.1 nM
